# Results collected from several papers.
# Protocols differ between the studies behind these lines.
# ADRA2B: Alpha-2B adrenergic receptor (ADRA2B, Homo sapiens, UniProt P18089)
# Sequence of UniProt P18089 (whole entry, looked up): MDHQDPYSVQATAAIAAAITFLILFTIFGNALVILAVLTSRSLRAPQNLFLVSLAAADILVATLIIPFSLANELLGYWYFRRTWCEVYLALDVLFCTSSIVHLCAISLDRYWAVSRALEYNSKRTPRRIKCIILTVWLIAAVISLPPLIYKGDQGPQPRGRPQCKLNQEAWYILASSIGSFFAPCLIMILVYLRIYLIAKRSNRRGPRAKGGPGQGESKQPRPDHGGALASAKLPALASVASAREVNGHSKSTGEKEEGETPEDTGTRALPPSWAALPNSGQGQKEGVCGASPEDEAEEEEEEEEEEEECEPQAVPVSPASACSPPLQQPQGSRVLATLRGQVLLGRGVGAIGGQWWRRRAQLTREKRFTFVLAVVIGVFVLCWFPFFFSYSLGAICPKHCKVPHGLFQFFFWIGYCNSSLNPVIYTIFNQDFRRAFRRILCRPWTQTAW
# HDAC6 ZnF-UBD domain: Protein deacetylase HDAC6, ZnF-UBD domain (HDAC6, Homo sapiens, UniProt Q9UBN7)
# Sequence of UniProt Q9UBN7 (whole entry, looked up): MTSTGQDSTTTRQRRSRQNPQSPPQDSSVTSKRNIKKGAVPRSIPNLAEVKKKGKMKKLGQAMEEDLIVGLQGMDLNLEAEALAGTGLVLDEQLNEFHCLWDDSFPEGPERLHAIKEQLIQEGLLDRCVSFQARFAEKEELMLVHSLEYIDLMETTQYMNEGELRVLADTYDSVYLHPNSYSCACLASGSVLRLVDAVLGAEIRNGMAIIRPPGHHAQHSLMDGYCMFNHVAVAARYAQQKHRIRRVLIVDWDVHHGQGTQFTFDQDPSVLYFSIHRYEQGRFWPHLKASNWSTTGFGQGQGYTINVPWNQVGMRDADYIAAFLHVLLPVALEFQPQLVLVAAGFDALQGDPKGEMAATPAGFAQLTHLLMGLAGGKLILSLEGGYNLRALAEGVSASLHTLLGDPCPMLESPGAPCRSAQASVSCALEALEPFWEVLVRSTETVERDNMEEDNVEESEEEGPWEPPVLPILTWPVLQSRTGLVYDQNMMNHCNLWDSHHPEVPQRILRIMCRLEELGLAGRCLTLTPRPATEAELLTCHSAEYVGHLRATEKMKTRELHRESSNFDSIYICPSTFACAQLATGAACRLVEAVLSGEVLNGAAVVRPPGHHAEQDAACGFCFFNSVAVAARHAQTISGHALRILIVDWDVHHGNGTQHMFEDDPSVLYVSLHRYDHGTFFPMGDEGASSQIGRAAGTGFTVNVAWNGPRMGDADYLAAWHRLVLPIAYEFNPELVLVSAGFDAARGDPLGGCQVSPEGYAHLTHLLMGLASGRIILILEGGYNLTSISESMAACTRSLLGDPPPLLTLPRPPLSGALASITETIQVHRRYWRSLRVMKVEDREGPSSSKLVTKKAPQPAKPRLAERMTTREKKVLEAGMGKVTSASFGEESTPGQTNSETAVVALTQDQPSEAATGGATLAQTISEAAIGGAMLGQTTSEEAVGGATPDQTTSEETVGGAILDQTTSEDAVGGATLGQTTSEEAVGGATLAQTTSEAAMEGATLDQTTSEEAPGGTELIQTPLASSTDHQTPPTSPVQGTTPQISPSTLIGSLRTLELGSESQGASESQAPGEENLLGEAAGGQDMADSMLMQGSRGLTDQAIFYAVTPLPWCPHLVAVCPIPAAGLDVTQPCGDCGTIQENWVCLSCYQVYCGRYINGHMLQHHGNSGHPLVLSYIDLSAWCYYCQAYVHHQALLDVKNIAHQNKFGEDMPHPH
# CDA: Cytidine deaminase (CDA, Homo sapiens, UniProt P32320)
# Sequence of UniProt P32320 (whole entry, looked up): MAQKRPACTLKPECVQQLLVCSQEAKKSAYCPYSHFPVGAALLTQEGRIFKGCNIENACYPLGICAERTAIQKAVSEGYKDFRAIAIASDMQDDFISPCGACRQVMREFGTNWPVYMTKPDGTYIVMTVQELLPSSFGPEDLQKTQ
# DNA polymerase III PolC-type: DNA polymerase III PolC-type (Bacillus subtilis, UniProt P13267)
# Sequence of UniProt P13267 (whole entry, looked up): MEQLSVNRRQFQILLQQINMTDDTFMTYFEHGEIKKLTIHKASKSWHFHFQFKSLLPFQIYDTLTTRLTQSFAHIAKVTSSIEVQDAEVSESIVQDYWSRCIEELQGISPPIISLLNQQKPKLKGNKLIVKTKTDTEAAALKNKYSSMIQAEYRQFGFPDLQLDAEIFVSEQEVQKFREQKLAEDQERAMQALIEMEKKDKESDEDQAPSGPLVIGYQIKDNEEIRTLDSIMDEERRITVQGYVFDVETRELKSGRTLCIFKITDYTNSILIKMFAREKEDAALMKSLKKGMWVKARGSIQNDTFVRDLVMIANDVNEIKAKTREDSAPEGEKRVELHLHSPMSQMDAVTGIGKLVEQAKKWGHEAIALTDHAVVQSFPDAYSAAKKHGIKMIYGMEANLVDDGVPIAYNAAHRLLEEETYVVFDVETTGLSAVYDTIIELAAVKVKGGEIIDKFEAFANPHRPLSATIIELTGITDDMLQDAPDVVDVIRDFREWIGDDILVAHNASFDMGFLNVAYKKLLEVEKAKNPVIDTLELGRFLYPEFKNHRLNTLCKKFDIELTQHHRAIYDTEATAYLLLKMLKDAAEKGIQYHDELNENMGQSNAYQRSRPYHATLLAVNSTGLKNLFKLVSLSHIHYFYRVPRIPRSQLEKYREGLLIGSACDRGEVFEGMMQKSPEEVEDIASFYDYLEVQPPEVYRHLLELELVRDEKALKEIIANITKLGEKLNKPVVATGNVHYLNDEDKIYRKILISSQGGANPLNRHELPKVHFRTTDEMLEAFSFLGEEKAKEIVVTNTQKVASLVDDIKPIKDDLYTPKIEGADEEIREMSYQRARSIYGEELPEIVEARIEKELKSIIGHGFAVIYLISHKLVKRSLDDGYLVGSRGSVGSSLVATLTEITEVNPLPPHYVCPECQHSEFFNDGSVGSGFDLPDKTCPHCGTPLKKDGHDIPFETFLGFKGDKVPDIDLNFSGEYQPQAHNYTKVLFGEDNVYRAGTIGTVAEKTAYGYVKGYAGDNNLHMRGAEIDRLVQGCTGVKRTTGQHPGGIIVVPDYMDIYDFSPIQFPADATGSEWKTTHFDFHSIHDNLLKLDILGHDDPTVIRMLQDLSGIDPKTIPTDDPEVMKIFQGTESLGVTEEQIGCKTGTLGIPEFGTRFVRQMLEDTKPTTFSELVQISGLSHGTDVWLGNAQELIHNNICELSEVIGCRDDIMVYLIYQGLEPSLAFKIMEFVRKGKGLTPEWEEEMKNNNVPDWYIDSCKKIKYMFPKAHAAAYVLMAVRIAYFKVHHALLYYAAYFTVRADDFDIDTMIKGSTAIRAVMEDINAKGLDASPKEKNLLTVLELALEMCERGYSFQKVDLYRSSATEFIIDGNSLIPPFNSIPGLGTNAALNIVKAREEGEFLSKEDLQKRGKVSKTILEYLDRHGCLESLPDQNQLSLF
# Sequence of UniProt P50613 (whole entry, looked up): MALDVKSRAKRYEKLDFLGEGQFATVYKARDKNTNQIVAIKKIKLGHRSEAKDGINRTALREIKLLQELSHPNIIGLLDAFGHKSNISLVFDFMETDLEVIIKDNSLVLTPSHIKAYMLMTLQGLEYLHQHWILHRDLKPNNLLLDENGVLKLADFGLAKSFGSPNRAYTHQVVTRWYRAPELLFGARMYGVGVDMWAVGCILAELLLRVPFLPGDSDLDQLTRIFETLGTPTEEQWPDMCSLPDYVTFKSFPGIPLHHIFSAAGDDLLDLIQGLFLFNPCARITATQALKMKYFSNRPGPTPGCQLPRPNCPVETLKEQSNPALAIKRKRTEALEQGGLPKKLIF
# Sequence of UniProt P08173 (whole entry, looked up): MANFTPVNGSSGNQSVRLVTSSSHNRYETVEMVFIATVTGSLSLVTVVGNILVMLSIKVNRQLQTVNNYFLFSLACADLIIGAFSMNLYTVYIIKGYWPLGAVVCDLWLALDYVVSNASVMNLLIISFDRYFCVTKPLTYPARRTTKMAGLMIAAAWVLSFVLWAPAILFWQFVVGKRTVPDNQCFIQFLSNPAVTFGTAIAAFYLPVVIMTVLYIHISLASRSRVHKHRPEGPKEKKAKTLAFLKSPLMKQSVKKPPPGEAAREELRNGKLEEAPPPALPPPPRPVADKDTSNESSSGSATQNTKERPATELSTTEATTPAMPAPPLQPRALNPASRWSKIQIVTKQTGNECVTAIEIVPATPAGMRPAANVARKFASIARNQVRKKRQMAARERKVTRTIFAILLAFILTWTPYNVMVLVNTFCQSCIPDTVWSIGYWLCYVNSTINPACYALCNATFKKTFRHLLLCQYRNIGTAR
# Sequence of UniProt Q8TD19 (whole entry, looked up): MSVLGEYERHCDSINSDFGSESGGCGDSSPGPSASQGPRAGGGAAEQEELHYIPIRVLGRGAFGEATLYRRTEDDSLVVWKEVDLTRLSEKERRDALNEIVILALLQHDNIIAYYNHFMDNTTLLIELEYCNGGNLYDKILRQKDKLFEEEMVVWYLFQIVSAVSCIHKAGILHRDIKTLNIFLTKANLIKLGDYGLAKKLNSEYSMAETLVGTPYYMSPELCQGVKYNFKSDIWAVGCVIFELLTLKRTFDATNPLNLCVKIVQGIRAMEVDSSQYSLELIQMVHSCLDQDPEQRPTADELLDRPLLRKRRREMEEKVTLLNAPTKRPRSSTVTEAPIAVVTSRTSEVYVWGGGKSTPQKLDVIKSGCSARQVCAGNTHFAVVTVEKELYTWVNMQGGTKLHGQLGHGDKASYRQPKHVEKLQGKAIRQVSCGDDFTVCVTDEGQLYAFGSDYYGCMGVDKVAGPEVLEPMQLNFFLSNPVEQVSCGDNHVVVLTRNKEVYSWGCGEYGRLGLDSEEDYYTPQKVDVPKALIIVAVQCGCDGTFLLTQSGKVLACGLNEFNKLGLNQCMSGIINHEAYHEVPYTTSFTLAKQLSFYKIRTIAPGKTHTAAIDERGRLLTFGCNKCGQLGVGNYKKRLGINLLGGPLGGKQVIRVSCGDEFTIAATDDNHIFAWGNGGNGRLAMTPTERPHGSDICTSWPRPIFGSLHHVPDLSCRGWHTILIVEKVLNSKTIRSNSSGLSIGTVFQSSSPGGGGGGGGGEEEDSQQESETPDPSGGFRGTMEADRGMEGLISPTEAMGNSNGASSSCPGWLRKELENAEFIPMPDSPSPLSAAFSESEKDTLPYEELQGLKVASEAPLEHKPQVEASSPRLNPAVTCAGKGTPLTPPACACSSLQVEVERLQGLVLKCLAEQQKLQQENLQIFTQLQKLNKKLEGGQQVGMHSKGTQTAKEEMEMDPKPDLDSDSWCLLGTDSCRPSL
Structure (SMILES),target or system,test,system,setting,scale,endpoint,result
FC1CCN(c2ccc(-c3ccc4sc(Br)cc4n3)cn2)CC1,"Alpha-synuclein, aggregates (SNCA, Homo sapiens, UniProt P37840)",,Parkinson's disease brain homogenate,added: 1 nM [3H]asyn-44,,Ki,0.0307 µM
CNC(=O)[C@@]12C[C@@H]1[C@@H](n1cnc3c(NC)nc(C#Cc4cccs4)nc31)[C@H](O)[C@@H]2O,ADRA2B,radioligand binding (PDSP),,,,Ki,1 to 10 µM
Cn1cc(-c2ccc(-c3cncc(Cl)c3N3CCC4(CCNC4=O)CC3)cc2)cn1,COLO 205,"gene expression, microarray, item: TLE1 mRNA",,"concentration not given, 2 h",baseline: untreated cells,log2 fold change,3.98
O=c1n(CCCN2CCN(c3cccc(Cl)c3)CC2)nc2ccccn12,"Muscarinic acetylcholine receptor M4 (CHRM4, Homo sapiens, UniProt P08173)",,,,,Ki,> 10 µM
CC[C@@H]1[C@H](F)C(=O)N[C@@H]1COc1nccc2cc(C(N)=O)c(OC)cc12,"Serine/threonine-protein kinase Nek9 (NEK9, Homo sapiens, UniProt Q8TD19)","ATP-site probe binding, ActivX profiling",THP-1 cell lysate,"0.04 mM, Lys2 site",,inhibition,5%
COCc1cc(C(=O)Nc2cc([C@H]3CC[C@@H](OC(=O)NC(C)C)C3)[nH]n2)n(C)n1,"Cyclin-dependent kinase 7 (CDK7, Homo sapiens, UniProt P50613)","kinase activity, inhibitor, fluorescence",,,,Ki,0.622 µM
O=C(O)CCc1cnn(-c2ccccc2)c1,HDAC6 ZnF-UBD domain,,,,,Kd,> 1000 µM
O=C1NC(O)CCN1[C@H]1C[C@H](O)[C@@H](CO)O1 (stereo partly shown),CDA,inhibitor,,pH 7.5,,Ki,0.037 µM
CCc1cc(Nc2nc3ncn(CCCCCO)c3c(=O)[nH]2)ccc1C,DNA polymerase III PolC-type,"enzyme activity, inhibitor",,"truncated, dGTP omitted, 4% DMSO",,Ki,0.74 µM
Nc1ncc([C@@H]2O[C@H](CO)[C@@H](O)[C@H]2O)c(=O)[nH]1,CDA,inhibitor,,pH 7.5,,Ki,28 µM
O=c1[nH]c(NCc2ccc(Cl)c(Cl)c2)nc2ncn(CCCCCN3CCOCC3)c12,DNA polymerase III PolC-type,"enzyme activity, inhibitor",,"truncated, dGTP omitted, 4% DMSO",,Ki,0.27 µM
CNC(=O)[C@@]12C[C@@H]1[C@@H](n1cnc3c(NC)nc(C#C[c-]4cccc4)nc31)[C@H](O)[C@@H]2O.[Fe+2].c1cc[cH-]c1,ADRA2B,radioligand binding,,,,Ki,0.571 µM
O=c1[nH]c(NCc2ccc(Cl)c(Cl)c2)nc2ncn(CCN3CCOCC3)c12,DNA polymerase III PolC-type,"enzyme activity, inhibitor",,"truncated, dGTP omitted, 4% DMSO",,Ki,0.34 µM
NC(=O)c1ccc[n+]([C@@H]2O[C@H](COP(=O)(O)OP(=O)(O)OC[C@H]3O[C@@H](n4cnc5c(N)ncnc54)[C@H](OP(=O)(O)O)[C@@H]3O)[C@@H](O)[C@H]2O)c1,"chnB (Rhodococcus sp. HI-31, UniProt C0STX7)",,,,,Ki,165 µM
O=C(O)CCC(=O)Nc1cccc2ccccc12,HDAC6 ZnF-UBD domain,,,,,Kd,199 µM
O=c1[nH]c(NCc2ccc(Cl)c(Cl)c2)nc2ncn(CCCCN3CCOCC3)c12,DNA polymerase III PolC-type,"enzyme activity, inhibitor",,"truncated, dGTP omitted, 4% DMSO",,Ki,0.14 µM

# Excerpt of the above:
Structure (SMILES),target or system,test,system,setting,scale,endpoint,result
CNC(=O)[C@@]12C[C@@H]1[C@@H](n1cnc3c(NC)nc(C#Cc4cccs4)nc31)[C@H](O)[C@@H]2O,ADRA2B,radioligand binding (PDSP),,,,Ki,1 to 10 µM
O=C(O)CCC(=O)Nc1cccc2ccccc12,HDAC6 ZnF-UBD domain,,,,,Kd,199 µM
